Measured values collected from several papers.
Every numbered part comes from another study and shows a few of its results, in no order.

Set 1 — technique: protein binding microarray; molecule type: double-stranded DNA, one strand shown; matrix: in vitro; concentration: not given; baseline: not given; direction: higher = stronger binding
Target: Histone acetyltransferase KAT6A, winged helix 2, GST fusion (KAT6A, Homo sapiens, UniProt Q92794, residues 85-181)
Setting: 8-mer, flanks averaged, mean of 2 arrays, mostly near background
Residues (chain): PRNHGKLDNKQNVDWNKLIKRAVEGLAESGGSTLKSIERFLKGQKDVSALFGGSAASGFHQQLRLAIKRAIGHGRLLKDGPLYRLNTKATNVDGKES
Strand	E-score
GAGTCGCA	-0.141
ACAACATC	-0.0367
ACTAAAGG	-0.0488
AGCGACGG	-0.00945
CGCAACTC	0.181
GAGCGCAC	-0.0843
TATGTCAA	0.00139
GAACATCC	0.0859
AAACAAGA	0.15
AATGGCGC	-0.084
AGCGGTTA	0.00062
GTCTTGTA	-0.0292
ACCTAGGA	-0.144
CCAAAAAG	0.134
CGAAAGAG	-0.0141
CAGTCACC	-0.0328
AGACACTC	-0.0486
GCCGACCC	0.18
CCTACACG	-0.0672
TGAATGAA	-0.133
CCGGGGCG	0.228

Set 2 — technique: RNA Bind-n-Seq; molecule type: RNA; matrix: in vitro; concentration: 365 nM; baseline: no-protein control; direction: higher = stronger binding
Target: RNA binding protein fox-1 homolog 2, RRM domain, GST-SBP tag (RBFOX2, Homo sapiens, UniProt O43251-10, residues 100-194)
Setting: natural RNA segment, single round, ends assumed
Strand	RBNS enrichment (R)
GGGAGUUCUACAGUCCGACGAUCGUCUUGGUGUAAUUUGAAGAUUGCCCCAUCUAGACUAGCAAUCUCUUCAUUAUUCUCUGCUAUAUAUAAAACGGUGCUGUGAGGGAGGGGAAAAGCAUUUUUCAAUAUAUUGGAAUUCUCGGGUGCCAA	0.741
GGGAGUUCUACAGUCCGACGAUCCAUCCUGCCUAAGCUGUGUCCCUGAGUGGUGGCUUUCCCUCCUGUCACGUGACAUCCCAUUCACUCAUCUACACUAGCCCAGUGCUCCCAUUGUCCCCUGCCUCCUCUGUUGGAAUUCUCGGGUGCCAA	0.484
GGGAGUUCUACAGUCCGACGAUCUUAUCCCAGGCAUUCUUAGAUGGAAAACAAUACUUUUGUUUUUUCUUCUAAAUUGAAGCUUGUUAAAAUAAUCACUGUAGUUAUGUGGUACACUAGUAUUUCUUAAAGCAUGGAAUUCUCGGGUGCCAA	0.963
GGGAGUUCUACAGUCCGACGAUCAUUGCUCUUCUUCUUUUAGACUGGUUGUCAUAGUUUCUGCAAAGGGCAAGUUCAUUGUGCUACCCUCCCAAUUCCCCCAUUAUGGAGUAACCAGUAUUAUUCAGUGAGCUUGGAAUUCUCGGGUGCCAA	0.412
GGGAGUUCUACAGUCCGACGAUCACAAUUUUUUAAUGUGUUCUGUGGCCGUUUUACUGACAGUAACUGCCAUUUCGUGUCUGUGGUAACAAAGUGACUUGUAAAAUGGUGGAUGUUUCCCUCACUGUGUUCUCUGGAAUUCUCGGGUGCCAA	0.521
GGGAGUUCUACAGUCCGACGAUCCCGCUCACAGGCCCUCAGCUGUCGGUGGUUCCUGCAGCUUUUGUUCCUCGCAUGUAAUCAGGGAGCACGCAUGCACGUUGAGUGGGUGCAUCCUGCCUAAGCUGUGUCCCUGGAAUUCUCGGGUGCCAA	21
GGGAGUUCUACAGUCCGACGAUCAAGUCACUGGUGGCUUUAAAUAACCCAGCGUUGUUCCUCCACACGGCUUUGGUACUCUCUACCUCUUACCGAGCACCGCCCUUUUGACCUUGUAUAGCCAGUUUGACCAUUGGAAUUCUCGGGUGCCAA	0.404
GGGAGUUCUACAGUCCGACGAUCGAUUCCCAAACCUUGUUGCAAGUUUUUGCAUUGGCAUCUUUGGAUUUCAGUCUUGAUGUUUGUUCUAUCAGACUUAACCUUUUAUUUCCUGUCCUUCCUUGAAAUUGCUGUGGAAUUCUCGGGUGCCAA	0.51
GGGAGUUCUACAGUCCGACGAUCGUGAUCUGCACUGGCCACUUGGCAGGCACAAGCUGCUUCCUUCCCCUCAGGUCUUAACCCUUCCCAGACCUGCAGCGAUUCCUGUCGACUCCCUUACACAGUAUUGAUCUUGGAAUUCUCGGGUGCCAA	1.88
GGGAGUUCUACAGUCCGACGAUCUCAGUAAAAUGGACUAGCAUAUUAUUUAUCUUGUUCUUCAGUUAACAACUUUGUGUUCUCUGUGGGAGGGAGGGAGUCCUGUGUGUUUGUGGGGAGAGGGAAGGAGGAAGUGGAAUUCUCGGGUGCCAA	0.649
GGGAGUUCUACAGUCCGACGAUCCCACGGAGAGCUCCAGGCAGAGCCCACAGUACCACAGUGUGCCCACACCACCGGUUACUGGCUCCUGGAUGAGGGGGCCAGAGAGGAGUGAAUAACUUCCCAGACACUUAUGGAAUUCUCGGGUGCCAA	0.436
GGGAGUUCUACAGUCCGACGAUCGCGGGAGGGAGGUGUUGCCGUCACUGUACUAAGUCGAUGUUGGGAAAUGUUUUAACAUCUGGAGCCUUUGUGGGUGGAAAUCUGUCUCCAAUUACAACUCUGCACUGGAUUGGAAUUCUCGGGUGCCAA	0.956

Set 3 — organism: Saccharomyces cerevisiae; effect on: binding; technique: yeast competitive growth sequencing; molecule type: peptide; strain: cyclin B3-Cln2 fusion strain; setting: peptide tiling library; direction: direction not given
Sequence	enrichment score
VKRLNFRSEEME	-0.116
SNFFDVIKQLFSDEKN	0.991
QYQVVDDIVSKLVFDF	0.849
GTPKRCLDLSNLSSGE	-0.373
NEGVSNAVRRSLYIRD	-0.534
EHCRVLFLDHVMYTIH	-1.79
RQVRRDLFAF	-0.851
KRCATPVIIDEILPSK	1.56
YLYLLLTQSLWCRV	-1.99
QNPCGSKACRRLFGPV	-1.42
KVRRNLFNQELLSP	-0.787
SPPRGRRLFPPGPAGF	0.108
GPVKLEFDVSDGAT	-0.459
EPRNLLSLFEDTLDPT	0.672
PHKTFRKLRLFDTPHT	-1.53
RTEALEQGGLPKKLIF	1.48

Set 4 — technique: protein-binding microarray; molecule type: double-stranded DNA, one strand shown; matrix: in vitro; concentration: 0.8 µM; setting: whole 60-bp probe, no competitor; direction: higher = stronger binding
Target: Centromere-binding protein 1, full length, N-terminal tag (CBF1, Saccharomyces cerevisiae, UniProt P17106, residues 1-351)
Chain of UniProt P17106 (whole entry, looked up): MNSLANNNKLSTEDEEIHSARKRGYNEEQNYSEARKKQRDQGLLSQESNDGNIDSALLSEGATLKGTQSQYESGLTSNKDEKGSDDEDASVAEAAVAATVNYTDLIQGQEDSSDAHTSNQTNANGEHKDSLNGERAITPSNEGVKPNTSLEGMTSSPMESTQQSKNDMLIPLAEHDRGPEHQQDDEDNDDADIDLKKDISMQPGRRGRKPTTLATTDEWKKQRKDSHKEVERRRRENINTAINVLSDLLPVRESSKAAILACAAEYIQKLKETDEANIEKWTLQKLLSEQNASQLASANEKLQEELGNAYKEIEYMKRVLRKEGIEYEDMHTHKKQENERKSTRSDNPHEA
Strand	fluorescence intensity [a.u.]
TGTACGAAGCTATCTAAGGTGACTATAGTAGTTAGGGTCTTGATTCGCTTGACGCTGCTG	502
GAACATGGTGTCTCTCTCATGATTGTGGTAGCCTAGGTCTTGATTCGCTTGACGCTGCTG	538
CTACCGGTAGAAGGTGGTGCTTTTATCTATGTATTCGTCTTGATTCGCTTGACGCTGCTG	507
CTACTCAAAAAGGGTCACCCGATCGGTGAATCATTCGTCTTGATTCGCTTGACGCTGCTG	650
CTAATTTAATAGTTCCACGTGGACGTGTTATTTTTCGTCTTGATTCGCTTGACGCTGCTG	4170
CTATTCTGACAACGTGTTGTCATACCTGTTACGTTCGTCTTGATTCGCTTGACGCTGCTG	809
GAAGAAGTAAGTAGTCACGCTTATTCTGACGCTTAGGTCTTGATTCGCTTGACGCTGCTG	886
GAAATACTCTAATATCTCACCTGATCCTTTTTGTAGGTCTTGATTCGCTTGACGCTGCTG	960
CTACTGTGTAAACATCAGATGAAGCATTGCCTTTTCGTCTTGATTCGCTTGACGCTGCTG	517
TGTACGAAGCTATTCCTCGTGTCTATAGTAGTTAGGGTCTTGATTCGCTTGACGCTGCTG	564
CCTAACTACTATAACGTGATAACATAGCTTCGTACAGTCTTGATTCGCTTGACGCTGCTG	1420
CTAACGATCAAATATAACATCACAAAGCTTACATTCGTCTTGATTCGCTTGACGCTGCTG	522
CTATTCCAATGGGATTGCGTGATTATGTTTCGTTTCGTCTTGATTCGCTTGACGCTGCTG	596
CTAAAGATAAAGCGTCATGTCCACACCAGCTAGTTCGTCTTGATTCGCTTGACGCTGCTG	526
GAAGGAATAAACAGTCACCTTTAACAAGAGGAGTAGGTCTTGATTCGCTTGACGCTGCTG	573
GAATTTTCTTCCGTGGGCCTGACGGAACATTCCTAGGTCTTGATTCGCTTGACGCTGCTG	484

Set 5 — technique: RNA Bind-n-Seq; molecule type: RNA; matrix: in vitro; concentration: not given; baseline: input RNA pool; direction: higher = stronger binding
Target: RING finger protein unkempt homolog, zinc fingers 1-6, GST-SBP tag (UNK, Homo sapiens, UniProt Q9C0B0, residues 30-357)
Chain of UniProt Q9C0B0 (30-357, looked up): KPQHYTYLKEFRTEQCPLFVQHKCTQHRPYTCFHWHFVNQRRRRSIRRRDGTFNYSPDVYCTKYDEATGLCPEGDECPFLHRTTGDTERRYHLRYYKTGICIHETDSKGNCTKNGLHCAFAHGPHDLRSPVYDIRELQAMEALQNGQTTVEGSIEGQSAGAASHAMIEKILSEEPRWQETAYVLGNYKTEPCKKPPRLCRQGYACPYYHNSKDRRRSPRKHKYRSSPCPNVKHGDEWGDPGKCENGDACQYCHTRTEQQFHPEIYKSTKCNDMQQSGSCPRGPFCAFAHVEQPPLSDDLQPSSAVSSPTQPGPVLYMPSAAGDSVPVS
Setting: RNA with constant flanks, human-mouse chimeric sites, ends assumed
Strand	bound/input enrichment [ratio]
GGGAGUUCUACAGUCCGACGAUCGAUCAUGAACCACCAUCAGAAAUGAAGAUGAGAUUACCCAGACGAGCCAAAACAGCUAGCACUAGAAAAAGUAAACUUAACCUUGCAGAGUUCCUUAAAUGAAGAUCAAGUUAAGAGAGCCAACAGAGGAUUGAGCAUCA	3.26
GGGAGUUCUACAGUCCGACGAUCUGUGAACUGUCUCUUGAGAUCUAAAAAAAACAUGAUUUUUCCUGGCACAUAUUCCAAAGCAAAGACUUUGUUGCCUGCUGCUUCUUGUCUAAUUUACAGGGAUAUUUAAUUUUGUCAGGUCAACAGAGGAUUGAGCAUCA	0.171
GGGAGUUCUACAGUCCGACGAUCCUGGGCUUCUCUUUUCUUUCUUUCCUUAAAAGCCUAACUAAAGAUUAGGUUGUAAGAAAAACAGAAGCCAUGUUUCGAAGACCUGUGUUACAGGUAUUUCGUCAGUUUGUAAGACAUGAGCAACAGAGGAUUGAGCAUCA	0.233
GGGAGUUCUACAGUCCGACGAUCCUCAGAGAUGUGGCAUAUCAGUAUGUGAAAAAGGGGGCUCGUAUAUUUGUGGAAGGGAAAAUAGACUAUGGCGAGUACAUGGAUAAAAACAAUGUGAGGCGGCAAGCAACAACAAUCAUACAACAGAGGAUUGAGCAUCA	0.425
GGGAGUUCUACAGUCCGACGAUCUACUACUAUGAUGGUGAUAUUGGCAAUUAUUAUUAUGGACAGGGUCAUCCCAUGAAGCCUCAUAGAAUCCGGAUGACUCAUAACUUGCUGUUAAAUUAUGGUUUAUACCGAAAAAUGGAACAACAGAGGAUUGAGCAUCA	0.347
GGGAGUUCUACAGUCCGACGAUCUAUAUCACCAAUGUUCUACAAAAUCCUGAUUUGGCUCUGAGAAUGGCUGUGCGGAACAACUUAGCUGGUGCUGAAGAACUCUUUGCCCGGAAAUUUAAUGCUCUCUUCGCCCAGGGAAACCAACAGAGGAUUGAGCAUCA	0.453
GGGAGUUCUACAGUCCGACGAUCUUUGUAUUCAUGUUAAGCACACGUGCUGGUGGUCUUGGCAUCAAUCUUGCAACUGCUGAUGUAGUCAUUUUAUAUGACUCAGAUUGGAAUCCGCAAGUUGAUCUUCAGGCUAUGGACCGUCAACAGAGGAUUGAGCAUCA	0.214
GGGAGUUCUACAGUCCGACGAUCGCAAAGGAUGAUGAGGCAGCUGCAGUUGCCCUUUCCUCUCUCGUUCAUGCUUUGGAUGAGUUAAACAUGGUGGCCAUCGUCCGAUAUGCUUAUGACAAAAGAUCUAAUCCUCAAGUUGGUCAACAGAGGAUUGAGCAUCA	0.143
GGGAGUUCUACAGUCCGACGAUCGCUCUUGGGAAUGUAAUCAGCGCCUUGGGAGACAAGAGCAAGAGAGCCACCCAUGUCCCUUACAGAGACUCUAAGCUAACAAGACUAUUGCAGGAUUCCCUUGGGGGUAACAGCCAAACCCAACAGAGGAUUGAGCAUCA	0.173
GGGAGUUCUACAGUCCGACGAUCGUACUGCAGCAGCAGGGCAAGCUGCAGGAAGCUCUGAUGCACUAUAAGGAGGCUAUUCGAAUCAGUCCUACCUUUGCUGAUGCCUACUCUAAUAUGGGAAACACUCUAAAGGAGAUGCAGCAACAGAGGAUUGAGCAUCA	0.233
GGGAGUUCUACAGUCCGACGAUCCACAGAGCAGCACCUACCUCCUCCUUCUUUCCACACCUGCAAACCCUUUUACUUGGGCUGAAUAUUUAGUGUAAUUACAUCUCAGCUUUGAGGGCUCCUGUGGCAAAUUCCCGGAUUAAACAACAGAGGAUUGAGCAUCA	0.61

Some of these lines once more (set 1):
Strand	E-score
ACCTAGGA	-0.144
GAGCGCAC	-0.0843
AATGGCGC	-0.084
TGAATGAA	-0.133
